# Assay results from different studies.
# A part holds a random share of what one study measured.
# UniProt P15056, sequence (whole entry, unmodified, looked up): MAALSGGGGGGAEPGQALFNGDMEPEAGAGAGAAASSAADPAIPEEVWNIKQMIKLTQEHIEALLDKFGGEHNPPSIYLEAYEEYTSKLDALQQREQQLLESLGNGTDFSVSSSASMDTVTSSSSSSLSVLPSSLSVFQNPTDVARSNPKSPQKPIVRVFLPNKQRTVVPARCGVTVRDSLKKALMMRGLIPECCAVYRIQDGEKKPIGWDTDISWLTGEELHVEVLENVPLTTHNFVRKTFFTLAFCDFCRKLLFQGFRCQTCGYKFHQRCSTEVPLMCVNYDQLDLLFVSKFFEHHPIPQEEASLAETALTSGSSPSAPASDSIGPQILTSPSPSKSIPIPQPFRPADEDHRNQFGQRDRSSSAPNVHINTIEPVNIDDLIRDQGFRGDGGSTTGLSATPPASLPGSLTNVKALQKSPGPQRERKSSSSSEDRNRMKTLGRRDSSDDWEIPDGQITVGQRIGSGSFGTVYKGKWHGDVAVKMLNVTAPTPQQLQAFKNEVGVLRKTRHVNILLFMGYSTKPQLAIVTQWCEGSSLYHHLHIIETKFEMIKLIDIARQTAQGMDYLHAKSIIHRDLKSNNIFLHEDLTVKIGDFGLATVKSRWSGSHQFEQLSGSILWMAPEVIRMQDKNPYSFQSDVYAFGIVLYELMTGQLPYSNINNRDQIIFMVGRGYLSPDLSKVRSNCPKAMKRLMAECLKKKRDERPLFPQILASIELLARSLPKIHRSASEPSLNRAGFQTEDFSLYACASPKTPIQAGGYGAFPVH
# UniProt Q9NWZ3, sequence (whole entry, looked up): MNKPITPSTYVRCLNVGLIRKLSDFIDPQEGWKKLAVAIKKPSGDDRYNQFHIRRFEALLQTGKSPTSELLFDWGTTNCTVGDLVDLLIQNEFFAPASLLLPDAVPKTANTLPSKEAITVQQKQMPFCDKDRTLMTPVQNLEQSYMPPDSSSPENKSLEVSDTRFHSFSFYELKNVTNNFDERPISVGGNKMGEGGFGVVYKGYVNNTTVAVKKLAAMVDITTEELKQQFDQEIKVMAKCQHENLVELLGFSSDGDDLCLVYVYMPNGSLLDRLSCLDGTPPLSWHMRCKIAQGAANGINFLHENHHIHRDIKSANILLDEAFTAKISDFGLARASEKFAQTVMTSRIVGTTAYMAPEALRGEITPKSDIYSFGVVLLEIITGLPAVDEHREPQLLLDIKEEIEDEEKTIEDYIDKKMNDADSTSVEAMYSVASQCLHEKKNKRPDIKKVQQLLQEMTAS
# UniProt Q9BWU1, sequence (whole entry, looked up): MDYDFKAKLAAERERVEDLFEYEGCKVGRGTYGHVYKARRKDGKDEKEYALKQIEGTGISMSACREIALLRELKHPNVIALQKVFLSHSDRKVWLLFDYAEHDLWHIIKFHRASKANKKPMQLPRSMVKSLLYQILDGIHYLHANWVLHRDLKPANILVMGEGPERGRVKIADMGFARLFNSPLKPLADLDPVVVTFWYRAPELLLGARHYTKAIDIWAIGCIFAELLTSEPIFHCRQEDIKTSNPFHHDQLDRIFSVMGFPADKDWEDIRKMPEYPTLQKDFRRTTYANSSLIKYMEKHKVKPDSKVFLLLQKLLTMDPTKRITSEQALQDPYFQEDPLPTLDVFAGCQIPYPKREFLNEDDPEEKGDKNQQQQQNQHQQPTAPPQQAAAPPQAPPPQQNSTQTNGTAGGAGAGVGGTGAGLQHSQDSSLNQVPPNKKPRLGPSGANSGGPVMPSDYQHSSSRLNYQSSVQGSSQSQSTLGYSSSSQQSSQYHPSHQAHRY
# UniProt Q15303, sequence (whole entry, looked up): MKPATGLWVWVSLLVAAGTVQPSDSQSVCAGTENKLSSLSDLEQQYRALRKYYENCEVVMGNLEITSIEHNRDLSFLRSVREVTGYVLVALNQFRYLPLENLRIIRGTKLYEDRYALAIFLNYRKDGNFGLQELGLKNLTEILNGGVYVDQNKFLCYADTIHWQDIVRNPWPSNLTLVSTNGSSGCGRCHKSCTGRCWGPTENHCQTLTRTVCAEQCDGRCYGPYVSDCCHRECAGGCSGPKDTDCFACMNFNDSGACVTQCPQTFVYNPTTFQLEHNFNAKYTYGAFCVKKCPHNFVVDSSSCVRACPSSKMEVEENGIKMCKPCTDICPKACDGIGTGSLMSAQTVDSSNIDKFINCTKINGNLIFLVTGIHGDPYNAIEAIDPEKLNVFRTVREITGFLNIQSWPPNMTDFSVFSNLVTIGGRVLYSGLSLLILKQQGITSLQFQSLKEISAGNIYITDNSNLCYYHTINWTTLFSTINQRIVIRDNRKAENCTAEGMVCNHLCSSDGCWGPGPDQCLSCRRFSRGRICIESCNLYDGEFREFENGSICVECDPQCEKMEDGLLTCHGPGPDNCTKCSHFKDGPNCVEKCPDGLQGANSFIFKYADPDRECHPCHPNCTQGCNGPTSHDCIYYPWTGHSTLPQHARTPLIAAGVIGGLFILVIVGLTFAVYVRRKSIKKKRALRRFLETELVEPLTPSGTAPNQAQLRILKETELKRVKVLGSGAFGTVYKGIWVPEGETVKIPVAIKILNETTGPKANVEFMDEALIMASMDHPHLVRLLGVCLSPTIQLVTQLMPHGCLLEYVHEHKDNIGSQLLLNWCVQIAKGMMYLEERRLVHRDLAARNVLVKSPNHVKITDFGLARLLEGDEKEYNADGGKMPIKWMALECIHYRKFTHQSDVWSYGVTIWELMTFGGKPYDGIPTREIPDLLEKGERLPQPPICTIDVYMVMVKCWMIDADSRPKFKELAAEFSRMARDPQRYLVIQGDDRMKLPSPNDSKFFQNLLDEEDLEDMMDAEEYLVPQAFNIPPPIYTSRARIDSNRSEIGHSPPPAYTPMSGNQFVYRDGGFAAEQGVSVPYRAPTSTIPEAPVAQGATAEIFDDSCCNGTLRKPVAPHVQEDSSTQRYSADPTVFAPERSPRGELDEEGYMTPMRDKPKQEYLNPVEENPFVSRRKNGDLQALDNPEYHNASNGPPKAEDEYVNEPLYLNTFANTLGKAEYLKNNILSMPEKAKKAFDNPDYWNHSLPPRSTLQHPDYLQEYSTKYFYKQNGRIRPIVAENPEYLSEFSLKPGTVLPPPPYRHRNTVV
# UniProt Q9UBF8, sequence (whole entry, looked up): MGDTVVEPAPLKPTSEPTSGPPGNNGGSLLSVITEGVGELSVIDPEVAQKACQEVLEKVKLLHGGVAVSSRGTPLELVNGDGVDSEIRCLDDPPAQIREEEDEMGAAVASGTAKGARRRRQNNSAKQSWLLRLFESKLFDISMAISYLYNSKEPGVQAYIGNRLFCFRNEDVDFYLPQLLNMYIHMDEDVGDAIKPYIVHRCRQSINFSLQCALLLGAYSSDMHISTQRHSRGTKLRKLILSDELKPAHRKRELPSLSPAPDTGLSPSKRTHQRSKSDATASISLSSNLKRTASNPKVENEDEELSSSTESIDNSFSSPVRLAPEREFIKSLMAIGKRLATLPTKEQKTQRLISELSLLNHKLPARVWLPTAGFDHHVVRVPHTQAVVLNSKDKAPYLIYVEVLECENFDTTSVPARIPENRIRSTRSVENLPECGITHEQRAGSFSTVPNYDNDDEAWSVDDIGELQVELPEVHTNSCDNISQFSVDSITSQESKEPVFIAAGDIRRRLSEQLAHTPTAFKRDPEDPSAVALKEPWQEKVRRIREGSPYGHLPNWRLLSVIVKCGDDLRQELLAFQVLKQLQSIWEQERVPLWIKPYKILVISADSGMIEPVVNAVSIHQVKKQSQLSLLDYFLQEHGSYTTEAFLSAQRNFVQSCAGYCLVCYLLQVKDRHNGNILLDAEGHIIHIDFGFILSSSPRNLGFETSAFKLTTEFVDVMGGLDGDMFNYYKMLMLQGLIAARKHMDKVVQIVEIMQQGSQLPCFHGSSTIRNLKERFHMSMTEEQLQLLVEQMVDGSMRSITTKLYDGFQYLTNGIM
# UniProt O00141, sequence (whole entry, looked up): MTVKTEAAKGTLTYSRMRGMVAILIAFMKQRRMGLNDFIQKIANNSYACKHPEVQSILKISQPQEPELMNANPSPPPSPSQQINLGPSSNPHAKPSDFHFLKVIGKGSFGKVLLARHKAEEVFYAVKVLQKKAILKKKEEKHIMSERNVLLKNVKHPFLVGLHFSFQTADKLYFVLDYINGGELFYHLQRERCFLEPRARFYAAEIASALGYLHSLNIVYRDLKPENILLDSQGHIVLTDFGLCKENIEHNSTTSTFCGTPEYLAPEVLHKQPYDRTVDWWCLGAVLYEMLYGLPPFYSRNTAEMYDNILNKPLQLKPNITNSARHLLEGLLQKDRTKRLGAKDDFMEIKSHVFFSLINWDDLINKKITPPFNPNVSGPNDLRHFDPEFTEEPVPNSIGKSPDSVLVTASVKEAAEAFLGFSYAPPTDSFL

# Sample 1
# SMILES: CS(=O)(=O)N1CCCC(NC(=O)[C@H](CCC2CCCCC2)NC(=O)c2ccc(CNc3ncnc4c3nnn4-c3ccccc3)cc2)C1 (stereo partly drawn)
target,assay,setting,remaining binding [%]
"Proto-oncogene tyrosine-protein kinase receptor Ret (RET, Homo sapiens, UniProt P07949)","cell-free assay, competition with immobilised ligand",0.1 µM,87
"Atypical kinase COQ8B, mitochondrial (COQ8B, Homo sapiens, UniProt Q96D53)","cell-free assay, competition with immobilised ligand",0.1 µM,100
"Cyclin-dependent kinase 19 (CDK19, Homo sapiens, UniProt Q9BWU1)",competition binding,0.1 µM,90
"Mitogen-activated protein kinase kinase kinase 10 (MAP3K10, Homo sapiens, UniProt Q02779)","cell-free assay, competition with immobilised ligand",0.1 µM,73
"Tyrosine-protein kinase Lyn (LYN, Homo sapiens, UniProt P07948)","cell-free assay, competition with immobilised ligand",0.1 µM,96
"SRSF protein kinase 2 (SRPK2, Homo sapiens, UniProt P78362)","binding, competition with immobilised ligand",1 µM,34
"Proto-oncogene tyrosine-protein kinase ROS (ROS1, Homo sapiens, UniProt P08922)","cell-free assay, competition with immobilised ligand",0.1 µM,91
"Receptor tyrosine-protein kinase erbB-4 (ERBB4, Homo sapiens, UniProt Q15303)","cell-free assay, competition with immobilised ligand",0.1 µM,61
"Phosphatidylinositol 4-kinase beta (PI4KB, Homo sapiens, UniProt Q9UBF8)","cell-free assay, competition with immobilised ligand",0.1 µM,100
"Serine/threonine-protein kinase SBK1 (SBK1, Homo sapiens, UniProt Q52WX2)","cell-free assay, competition with immobilised ligand",0.1 µM,82
"Phosphatidylinositol 4,5-bisphosphate 3-kinase catalytic subunit alpha isoform (PIK3CA, Homo sapiens, UniProt P42336)","cell-free assay, competition with immobilised ligand",0.1 µM,98
"Tyrosine-protein kinase Fyn (FYN, Homo sapiens, UniProt P06241)","cell-free assay, competition with immobilised ligand",0.1 µM,56
"NUAK family SNF1-like kinase 1 (NUAK1, Homo sapiens, UniProt O60285)","cell-free assay, competition with immobilised ligand",0.1 µM,100
"Protein-tyrosine kinase 2-beta (PTK2B, Homo sapiens, UniProt Q14289)","cell-free assay, competition with immobilised ligand",0.1 µM,94
"Serine/threonine-protein kinase MRCK gamma (CDC42BPG, Homo sapiens, UniProt Q6DT37)",competition binding,0.1 µM,99
"Serine/threonine-protein kinase Sgk1 (SGK1, Homo sapiens, UniProt O00141)","cell-free assay, competition with immobilised ligand",0.1 µM,100
"Interleukin-1 receptor-associated kinase 4 (IRAK4, Homo sapiens, UniProt Q9NWZ3)","cell-free assay, competition with immobilised ligand",0.1 µM,100
"Ribosomal protein S6 kinase alpha-1, N-terminal kinase domain (RPS6KA1, Homo sapiens, UniProt Q15418)","cell-free assay, competition with immobilised ligand",0.1 µM,100
"Bone morphogenetic protein receptor type-2 (BMPR2, Homo sapiens, UniProt Q13873)","cell-free assay, competition with immobilised ligand",0.1 µM,100
"Mitogen-activated protein kinase kinase kinase 9 (MAP3K9, Homo sapiens, UniProt P80192)","cell-free assay, competition with immobilised ligand",0.1 µM,90
"Mitogen-activated protein kinase kinase kinase 20 (MAP3K20, Homo sapiens, UniProt Q9NYL2)","cell-free assay, competition with immobilised ligand",0.1 µM,89

# Sample 2 — host: mouse; sample: microsomes or S9; tested at: 2 µM; time: 0.5 h
Structure (SMILES),remaining compound
COCCN(C)C(=O)C1(C)CN(S(C)(=O)=O)CCO1 (stereo not drawn),89.5%
CC(O)CN(Cc1ccc(C(C)(C)C)s1)C1CCS(=O)(=O)CC1 (stereo not drawn),1.38%
N#Cc1c(-c2cccs2)cc(=O)[nH]c1SCC(=O)c1ccc(Br)cc1,94.1%
CCOC(=O)c1cc(CC)sc1NC(=O)COC,0.432%
CCc1ccc(N2C(=O)CN(S(C)(=O)=O)CC2(C)C(=O)NCc2ccc(F)cc2)cc1 (stereo not drawn),6.87%
CCOc1cc(=O)n2c(c1C(=O)NCCc1ccc(OC)c(OC)c1)CCCC2,72.3%
O=C(NC1CCOC2(CCS(=O)(=O)C2)C1)c1cccc2cc[nH]c12 (stereo not drawn),72.3%
Cc1ccc(N2C(=O)c3[nH]nc(C)c3C2c2ccc(F)cc2)cc1 (stereo not drawn),47.2%

# Sample 3 — action: inhibitor; tested at: 5 µM
# SMILES: COc1cc(C(=O)N2CCC(N3CCN(C)CC3)CC2)ccc1Nc1ncc2c(n1)N(C)c1ccccc1C(=O)N2C
target,assay,system,scale,log2 fold change
"Tyrosine-protein kinase Fgr, with CDC37 (FGR, Homo sapiens, UniProt P09769)",cell-based kinome screen,human cells,baseline: vehicle,-0.189
"Serine/threonine-protein kinase B-raf (BRAF, Homo sapiens, UniProt P15056, G469A)",cell-based kinome profiling,human cells,baseline: vehicle control,0.044
human ITK-SYK fusion,kinase–CDC37 interaction,,baseline: vehicle,0.312
"Epidermal growth factor receptor (EGFR, Homo sapiens, UniProt P00533, L858R)",,human cells,baseline: vehicle,0.515
"Serine/threonine-protein kinase B-raf (BRAF, Homo sapiens, UniProt P15056, K601E)",cell-based kinome profiling,human cells,baseline: vehicle control,-0.005
"RAC-alpha serine/threonine-protein kinase (AKT1, Homo sapiens, UniProt P31749)",cell-based kinome profiling,human cells,baseline: vehicle control,-0.075
"Serine/threonine-protein kinase Kist (UHMK1, Homo sapiens, UniProt Q8TAS1)",kinase-CDC37 interaction,human cells,baseline: vehicle,-0.339
"Epidermal growth factor receptor (EGFR, Homo sapiens, UniProt P00533, L858R/T790M)",,human cells,baseline: vehicle,0.146
"Interleukin-1 receptor-associated kinase-like 2 (IRAK2, Homo sapiens, UniProt O43187)",cell-based kinome screen,human cells,baseline: vehicle,-0.179

# Sample 4 — read-out: enzyme activity; action: inhibitor; tested at: 10 µM
# Target: Calcium/calmodulin-dependent protein kinase type II subunit alpha (CAMK2A, Homo sapiens, UniProt Q9UQM7)
# UniProt Q9UQM7, sequence (whole entry, looked up): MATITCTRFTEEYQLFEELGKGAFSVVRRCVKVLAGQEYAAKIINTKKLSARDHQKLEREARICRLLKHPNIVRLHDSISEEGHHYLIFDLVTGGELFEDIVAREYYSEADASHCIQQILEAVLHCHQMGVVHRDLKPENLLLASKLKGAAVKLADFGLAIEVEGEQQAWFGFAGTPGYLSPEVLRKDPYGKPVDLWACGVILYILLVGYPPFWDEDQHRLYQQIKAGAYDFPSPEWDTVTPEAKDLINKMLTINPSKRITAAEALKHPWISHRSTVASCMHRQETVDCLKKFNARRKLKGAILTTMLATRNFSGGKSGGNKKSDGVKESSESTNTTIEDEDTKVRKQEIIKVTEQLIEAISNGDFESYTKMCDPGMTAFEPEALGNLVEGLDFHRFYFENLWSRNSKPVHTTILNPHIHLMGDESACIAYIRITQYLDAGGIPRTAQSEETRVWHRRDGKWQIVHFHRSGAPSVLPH
SMILES,inhibition [%]
C[C@H](CC[C@@H](O)C(C)(C)O)[C@H]1CC[C@@]2(C)[C@@H]3CC=C4[C@@H](CC[C@H](O[C@@H]5O[C@H](CO[C@@H]6O[C@H](CO)[C@@H](O)[C@H](O)[C@H]6O)[C@@H](O)[C@H](O)[C@H]5O)C4(C)C)[C@]3(C)[C@H](O)C[C@]12C,0
Nc1c(CC(=O)O)cccc1C(=O)c1ccccc1,0
C=C1CC[C@H]2C[C@@H]1C2(C)C,-17
CCC(C)n1ncn(-c2ccc(N3CCN(c4ccc(OC[C@H]5CO[C@](Cn6cncn6)(c6ccc(Cl)cc6Cl)O5)cc4)CC3)cc2)c1=O (mixture of isomers),-12
Cc1ccsc1C(=CCCN1CCC[C@@H](C(=O)O)C1)c1sccc1C,-4
COc1c2ccoc2cc2oc(=O)ccc12,20
CCOc1ccc(NC(=O)CC(C)O)cc1 (stereo not drawn),-2
Cc1cc(C#N)cc(C)c1Oc1nc(Nc2ccc(C#N)cc2)nc(N)c1Br,-8
CCOc1ccccc1C(=O)NCc1coc(-c2ccc(OC(F)F)c(OC(C)C)c2)n1,1
C[C@@H]1CC[C@@]2(OC1)O[C@H]1C[C@H]3[C@@H]4CC=C5C[C@@H](O[C@@H]6O[C@H](CO)[C@@H](O)[C@H](O)[C@H]6O)CC[C@]5(C)[C@H]4CC[C@]3(C)[C@H]1[C@@H]2C,3

# A few entries again (sample 1):
target,assay,setting,remaining binding [%]
"Mitogen-activated protein kinase kinase kinase 10 (MAP3K10, Homo sapiens, UniProt Q02779)","cell-free assay, competition with immobilised ligand",0.1 µM,73
"Receptor tyrosine-protein kinase erbB-4 (ERBB4, Homo sapiens, UniProt Q15303)","cell-free assay, competition with immobilised ligand",0.1 µM,61
"Tyrosine-protein kinase Fyn (FYN, Homo sapiens, UniProt P06241)","cell-free assay, competition with immobilised ligand",0.1 µM,56
"Proto-oncogene tyrosine-protein kinase ROS (ROS1, Homo sapiens, UniProt P08922)","cell-free assay, competition with immobilised ligand",0.1 µM,91
"Cyclin-dependent kinase 19 (CDK19, Homo sapiens, UniProt Q9BWU1)",competition binding,0.1 µM,90
